# Experimental data collected from several papers.
# Organism: Staphylococcus aureus
SMILES,assay,test system,setting,MIC
CC(C)C[C@@H](NC(=O)[C@@H](CCCNC(=N)N)NC(=O)[C@H](N)CCCNC(=N)N)C(=O)N[C@H](CC(C)C)C(=O)N[C@H](CCCNC(=N)N)C(=O)N[C@H](CCCCN)C(=O)N[C@H](CC(C)C)C(=O)N[C@H](CCCCN)C(=O)NCC(=O)N[C@H](CCCCN)C(=O)N[C@H](CCCCN)C(=O)N[C@H](CC(C)C)C(=O)N[C@H](Cc1ccc(O)cc1)C(=O)N[C@H](CC(C)C)C(=O)N[C@H](Cc1ccc(O)cc1)C(=O)N[C@H](Cc1ccccc1)C(=O)N[C@H](CCCCN)C(=O)N[C@H](CC(C)C)C(=O)N[C@H](CCC(N)=O)C(=O)N[C@H](CC(C)C)C(=O)N[C@H](CC(C)C)C(=O)N[C@H](CCCCN)C(=O)N[C@H](CCCCN)C(N)=O,,"KCTC 1621, Mueller-Hinton broth",together with: 2.5 mM CaCl2,32 µM
CN[C@H](CC(C)C)C(=O)N[C@H]1C(=O)N[C@@H](CC(N)=O)C(=O)N[C@H]2C(=O)N[C@H]3C(=O)N[C@H](C(=O)N[C@H](C(=O)N[C@@H](CCCNC(=N)N)C(N)=O)c4cc(O)cc(O)c4-c4cc3ccc4O)[C@H](O)c3ccc(c(Cl)c3)Oc3cc2cc(c3O[C@@H]2O[C@H](CO)[C@@H](O)[C@H](O)[C@H]2O[C@H]2C[C@](C)(NCc3ccc(OCc4cn(CC(=O)N[C@H](C(=O)N[C@@H](CCN)C(=O)N[C@H]5CCNC(=O)[C@H]([C@@H](C)O)NC(=O)[C@H](CCN)NC(=O)[C@H](CCN)NC(=O)[C@H](CC(C)C)NC(=O)[C@@H](CC(C)C)NC(=O)[C@H](CCN)NC5=O)[C@@H](C)O)nn4)c(OC)c3)[C@H](O)[C@H](C)O2)Oc2ccc(cc2Cl)[C@H]1O,,LIM-2 VISA,,3 µM
CC[C@H](C)[C@@H]1NC(=O)[C@H](CO)NC(=O)[C@H](CCCCN)NC(=O)[C@@H]2CSSC[C@@H](C(=O)N[C@@H](Cc3ccc(O)cc3)C(N)=O)NC(=O)[C@H](CCCCN)NC(=O)[C@@H]3CSSC[C@H](NC(=O)[C@H](CCCNC(=N)N)NC(=O)[C@H](CC(C)C)NC(=O)[C@H](CC(=O)O)NC(=O)[C@H](CC(=O)O)NC(=O)[C@H](CCC(=O)O)NC(=O)[C@H](CC(N)=O)NC(=O)[C@H](Cc4c[nH]c5ccccc45)NC(=O)C(C)(CC)NC(=O)CNC(=O)[C@H](CC(N)=O)NC(=O)[C@@H](NC(=O)CNC(=O)[C@H](Cc4ccccc4)NC(=O)CN)CSSC[C@H](NC(=O)[C@H](Cc4ccc(O)cc4)NC(=O)CNC(=O)CNC(=O)[C@H](CCCCN)NC(=O)[C@H](Cc4ccc(O)cc4)NC(=O)[C@H]4CCCN4C(=O)[C@@H]4CCCN4C1=O)C(=O)N[C@@H](C)C(=O)N[C@@H](CCCCN)C(=O)N1CCC[C@@H]1C(=O)NCC(=O)N[C@@H](Cc1ccccc1)C(=O)N[C@@H](C(C)C)C(=O)N3)C(=O)N[C@@H](Cc1c[nH]cn1)C(=O)N[C@@H](CC(N)=O)C(=O)N[C@@H](Cc1c[nH]cn1)C(=O)N2 (stereo partly drawn),broth microdilution,ATCC 49775,18 h,1 µM
CC[C@H](C)[C@H](NC(=O)[C@@H](CCC(=O)O)NC(=O)[C@H](CC(C)C)NC(=O)c1cccc(C(=O)O)n1)C(=O)N[C@H]1CCCCNC(=O)[C@H](CC(N)=O)NC(=O)[C@@H](CC(=O)O)NC(=O)[C@H](Cc2c[nH]cn2)NC(=O)[C@@H](Cc2ccccc2)NC(=O)[C@H]([C@@H](C)CC)NC(=O)[C@@H](CCCN)NC1=O,,ATCC 29213 methicillin-susceptible,"18 h, 37 °C, 0.3 mM ZnSO4 LB",> 64 µg/mL
COc1ccc2ccc(O)c(/C=N/[C@H]3CCCC[C@H]3/N=C/c3cc(F)ccc3O)c2c1,"bacterial growth, broth microdilution",vancomycin-intermediate,,> 40 µM
CC[C@H](C)[C@H](NC(=O)[C@@H](CCCNC(=N)N)NC(=O)[C@H](CCCNC(=N)N)NC(=O)[C@@H]1CCCN1C(=O)[C@@H]1CCCN1C(=O)[C@H](Cc1c[nH]cn1)NC(=O)[C@@H]1CCCN1C(=O)[C@H](CCCNC(=N)N)NC(=O)[C@@H]1CCCN1C(=O)[C@H](CC(C)C)NC(=O)[C@H](Cc1ccc(O)cc1)NC(=O)[C@@H]1CCCN1C(=O)[C@@H]1CCCN1C(=O)[C@H](CCCCN)NC(=O)[C@H](CC(=O)O)NC(=O)[C@@H](N)C(C)C)C(=O)N[C@@H](Cc1ccc(O)cc1)C(=O)N[C@@H](CC(N)=O)C(=O)N[C@H](CCCNC(=N)N)C(N)=O,broth microdilution,DSM 6247,"18 h, 37 °C, 25% MHB2",> 128 µg/mL
CC1CCN(C(=O)c2cccc(NC(=O)Nc3ccc(F)cc3F)c2)CC1,"checkerboard, refers to: ceftobiprole","CRB, PBP4 overexpressor",25 µM,> 64 µg/mL
CN[C@H](CC(C)C)C(=O)N[C@H]1C(=O)N[C@@H](CC(N)=O)C(=O)N[C@H]2C(=O)N[C@H]3C(=O)N[C@H](C(=O)N[C@H](C(=O)NCc4cn(CC(=O)N[C@H](C(=O)N[C@@H](CCN)C(=O)N[C@H]5CCNC(=O)[C@H]([C@@H](C)O)NC(=O)[C@H](CCN)NC(=O)[C@H](CCN)NC(=O)[C@H](CC(C)C)NC(=O)[C@@H](CC(C)C)NC(=O)[C@H](CCN)NC5=O)[C@@H](C)O)nn4)c4cc(O)cc(O)c4-c4cc3ccc4O)[C@H](O)c3ccc(c(Cl)c3)Oc3cc2cc(c3O[C@@H]2O[C@H](CO)[C@@H](O)[C@H](O)[C@H]2O[C@H]2C[C@](C)(N)[C@H](O)[C@H](C)O2)Oc2ccc(cc2Cl)[C@H]1O,,LIM-2 VISA,,0.8 µM
CC(C)C[C@@H]1NC(=O)[C@H](CCCCN)NC(=O)C(N)CCC=CCCC(C(N)=O)NC(=O)[C@H](CCCCN)NC(=O)[C@H](CC(C)C)NC(=O)[C@H](CCCCN)NC(=O)C2CCC=CCCC(NC(=O)[C@H](CCCCN)NC1=O)C(=O)N[C@@H](CCCCN)C(=O)N1CCC[C@@H]1C(=O)NCC(=O)N[C@@H](CCCCN)C(=O)N2 (stereo partly drawn),broth microdilution,"ATCC 29737, Mueller-Hinton broth","18 h, 37 °C",128 µM
CC(C)CCCCCCCCC/C=C/C(=O)N[C@@H](CC(N)=O)C(=O)N[C@H]1CNC(=O)[C@@H]2CCCN2C(=O)[C@H](C(C)C)NC(=O)[C@@H](CN)NC(=O)CNC(=O)[C@H](CC(=O)O)NC(=O)CNC(=O)[C@H](CC(=O)O)NC(=O)[C@H](CC(=O)O)NC(=O)[C@H]2CCCCN2C1=O,broth microdilution,"VISA LIM strain 2, Mueller-Hinton broth, Mg2+ 10 mg/L","16 h, together with: Ca2+ 1.0 mM",8 µg/mL
CC(C)[C@H](NC(=O)[C@H](CCCNC(=N)N)NC(=O)[C@H](Cc1ccccc1)NC(=O)[C@H](CS)NC(=O)[C@H](Cc1c[nH]c2ccccc12)NC(=O)[C@@H](N)CCCCN)C(=O)N[C@@H](CS)C(=O)N[C@@H](Cc1c[nH]c2ccccc12)C(=O)N[C@@H](CCCNC(=N)N)C(=O)N[C@@H](Cc1c[nH]c2ccccc12)C(=O)N[C@@H](Cc1ccccc1)C(=O)N[C@@H](CS)C(=O)N[C@@H](Cc1c[nH]c2ccccc12)C(=O)N[C@@H](CCCNC(=N)N)C(=O)N[C@@H](CCCCN)C(=O)N[C@@H](CS)C(=O)N[C@@H](CCCNC(=N)N)C(=O)O,broth microdilution,"ATCC 29213, Mueller-Hinton broth","16 to 20 h, 37 °C",8.79 µg/mL
CN[C@H](CC(C)C)C(=O)N[C@H]1C(=O)N[C@@H](CC(N)=O)C(=O)N[C@H]2C(=O)N[C@H]3C(=O)N[C@H](C(=O)N[C@H](C(=O)O)c4cc(O)cc(O)c4-c4cc3ccc4O)[C@H](O)c3ccc(c(Cl)c3)Oc3cc2cc(c3O[C@@H]2O[C@H](CO)[C@@H](O)[C@H](O)[C@H]2O[C@H]2C[C@](C)(NCc3ccc(OCc4cn(CCCCC(=O)N[C@H](C(=O)N[C@@H](CCN)C(=O)N[C@H]5CCNC(=O)[C@H]([C@@H](C)O)NC(=O)[C@H](CCN)NC(=O)[C@H](CCN)NC(=O)[C@H](CC(C)C)NC(=O)[C@@H](CC(C)C)NC(=O)[C@H](CCN)NC5=O)[C@@H](C)O)nn4)c(OC)c3)[C@H](O)[C@H](C)O2)Oc2ccc(cc2Cl)[C@H]1O,broth microdilution,"VISA NRS402, tryptic soy broth","20 to 24 h, 37 °C, 0.002% polysorbate 80",2 µg/mL
CC[C@H](C)[C@H](NC(=O)[C@@H](CCCNC(=N)N)NC(=O)[C@H](CCCNC(=N)N)NC(=O)[C@H](CC(=O)O)NC(=O)[C@H](Cc1c[nH]c2ccccc12)NC(=O)[C@H](CCCNC(=N)N)NC(=O)[C@@H]1CCCN1C(=O)[C@H](CCCNC(=N)N)NC(=O)[C@@H]1CCCN1C(=O)[C@H](CC(C)C)NC(=O)[C@H](Cc1ccc(O)cc1)NC(=O)[C@@H]1CCCN1C(=O)[C@@H]1CCCN1C(=O)[C@H](CCCCN)NC(=O)[C@H](CC(=O)O)NC(=O)[C@@H](N)C(C)C)C(=O)N[C@@H](Cc1ccc(O)cc1)C(=O)N[C@@H](CC(N)=O)C(=O)N[C@H](CCCNC(=N)N)C(N)=O,broth microdilution,DSM 6247,"18 h, 37 °C, 25% MHB2",> 128 µg/mL
CC[C@H](C)[C@H](NC(=O)[C@H](C)NC(=O)[C@@H](NC(=O)[C@H](CC(=O)O)NC(=O)[C@H](CCCCN)NC(=O)[C@H](CO)NC(=O)[C@@H](NC(=O)[C@H](CC(N)=O)NC(=O)[C@H](C)NC(=O)[C@@H](NC(=O)[C@H](CCC(=O)O)NC(=O)[C@H](CCCCN)NC(=O)[C@@H](NC(=O)[C@@H](NC(=O)[C@H](Cc1c[nH]cn1)NC(=O)[C@H](CCCCN)NC(=O)[C@@H](NC(=O)[C@H](CCCCN)NC(=O)[C@H](CCCCN)NC(=O)[C@@H](NC(=O)[C@H](CC(C)C)NC(=O)[C@H](CCCCN)NC(=O)[C@H](CC(N)=O)NC(=O)[C@H](Cc1ccccc1)NC(=O)[C@H](CCCNC(=N)N)NC(=O)[C@H](CCCCN)NC(=O)[C@H](CCCNC(=N)N)NC(=O)[C@H](Cc1ccccc1)NC(=O)CN)C(C)C)C(C)C)[C@@H](C)O)[C@@H](C)CC)[C@@H](C)O)C(C)C)C(C)C)C(=O)N[C@H](C(=O)N[C@@H](C)C(=O)NCC(=O)N[C@@H](CO)C(=O)NCC(=O)N[C@H](C(=O)N[C@@H](C)C(=O)N[C@H](C(=O)NCC(=O)N[C@@H](C)C(=O)N[C@@H](C)C(=O)N[C@@H](CCSC)C(N)=O)C(C)C)C(C)C)C(C)C,broth microdilution,"ATCC 33592, CAMHB",,> 1020 µg/mL
Cc1ccc2[nH]c3c(c2c1)CCCC3NCCc1ccc(Br)cc1 (stereo not drawn),broth microdilution,SG511 daptomycin-resistant,,4 µg/mL
CC(=O)N[C@@H](CC(C)C)C(=O)N[C@H]1CSSC[C@@H](C(=O)N2CCC[C@H]2C(N)=O)NC(=O)[C@H](CCCCN)NC(=O)[C@H](C(C)C)NC(=O)[C@H](CCCCN)NC(=O)CNC(=O)[C@H](CC(C)C)NC(=O)[C@H](Cc2ccccc2)NC(=O)[C@H](CCCCN)NC(=O)[C@H](CC(C)C)NC(=O)[C@H](CCC(=O)O)NC(=O)[C@H](Cc2ccccc2)NC(=O)[C@H](CCCNC(=N)N)NC(=O)[C@H](CCCCN)NC(=O)[C@H](CC(C)C)NC(=O)[C@H](CC(=O)O)NC(=O)[C@@H]2CCCN2C(=O)[C@H](CCCCN)NC(=O)[C@H](C(C)C)NC(=O)[C@H](CCCCN)NC(=O)[C@H](CCCCN)NC(=O)[C@H](CCCCN)NC1=O,broth dilution,laboratory strain,24 h,> 40 µM
CN[C@H](CC(C)C)C(=O)N[C@H]1C(=O)N[C@@H](CC(N)=O)C(=O)N[C@H]2C(=O)N[C@H]3C(=O)N[C@H](C(=O)N[C@H](C(=O)NCc4cn(CCCCC(=O)N[C@H](C(=O)N[C@@H](CCN)C(=O)N[C@H]5CCNC(=O)[C@H]([C@@H](C)O)NC(=O)[C@H](CCN)NC(=O)[C@H](CCN)NC(=O)[C@H](CC(C)C)NC(=O)[C@@H](CC(C)C)NC(=O)[C@H](CCN)NC5=O)[C@@H](C)O)nn4)c4cc(O)cc(O)c4-c4cc3ccc4O)[C@H](O)c3ccc(c(Cl)c3)Oc3cc2cc(c3O[C@@H]2O[C@H](CO)[C@@H](O)[C@H](O)[C@H]2O[C@H]2C[C@](C)(N)[C@H](O)[C@H](C)O2)Oc2ccc(cc2Cl)[C@H]1O,,NRS402 VISA,,3 µM
C=C1NC(=O)C2C[S+]([O-])CC3NC(=O)C(CSC(C)C(NC(=S)C(Cc4cnc[nH]4)NC(=O)c4csc(C(C)NC(C)=O)n4)C(=O)N[C@H](CC(C)C(=O)NC(=O)CC(C(=O)O)NC(=O)C(C)NC3=O)C(=O)N2)NC(=O)[C@@H]2CCCN2C(=O)[C@@H](CC(C)C)NC1=O (stereo partly drawn),bacterial growth,ATCC 29213,,> 32 µg/mL
